# Measured values gathered from unrelated publications.
# Protocols differ between the studies behind these lines. ± gives the spread as reported.
Molecule,cell line,test,conditions,scale,measurement,value
CCCCOC(=O)Nc1cc2nc(C3CCCCC3)[nH]c2cc1N(CC)CCN(CC)CC,Vero,"cytotoxicity, Alamar Blue","3 days, 37 °C",,IC50,> 50 µg/mL
Cc1cc(OCc2nnc(SC3CCCC3)n2-c2cccnc2)ccc1-c1ccc(S(C)(=O)=O)cc1,"Huh-7 cells, uninfected",,"0.25 µM, 5 days",,viability,54 ± 2%
COc1ccc2c(O[C@@H]3C[C@H]4C(=O)N[C@]5(C(=O)NS(=O)(=O)C6CC6)C[C@H]5/C=C\CCCCN(C)C(=O)[C@@H]4C3)cc(-c3nc(C(C)C)cs3)nc2c1C,Caco-2 monolayer,,with: efflux inhibitor cocktail,,Papp A-B,0.5 ± 0.21 ×10⁻⁶ cm/s
Cc1ccc(NC(=O)CSc2nnc(Cn3cnc4c3c(=O)n(C)c(=O)n4C)n2-c2ccccc2)cc1,bovine erythrocytes,,"1 mg/mL, 30 min, 37 °C",,haemolysis,0.39%
COc1ccc2c(C[Se][C@@H]3O[C@H](CO)[C@H](O)[C@H](O)[C@H]3O)cc(=O)oc2c1,J774,"cell growth or viability, WST-1",24 h,,CC50,> 100 µM
CCCCCCCC/C=C\CCCCCCCCOC(=O)C1=C(C)NC(=S)NC1c1ccc(C)cc1 (stereo not shown),C2C12,"cell growth or viability, MTT","10 µM, 48 h",,viability,~70%
CCCN(Cc1ccccc1OC)C(=O)c1cccc(Br)c1,HEK293,"cell viability, MTT",72 h,,IC50,9.2 ± 4.9 µM
C=Cc1cccc(C(=O)Nc2cc3nc(C4CCCCC4)[nH]c3cc2N(CC)CC)c1,Vero,"cytotoxicity, Alamar Blue","3 days, 37 °C",,IC50,> 100 µg/mL
C[C@H]1O[C@@H](O[C@H]2CC[C@@]3(C)[C@@H](CC[C@]4(C)[C@@H]3C=C[C@]35OC[C@@]6(CCC(C)(C)C[C@H]63)[C@H](O)C[C@]54C)[C@]2(C)CO)[C@H](O)[C@@H](O[C@@H]2O[C@H](CO)[C@@H](O)[C@H](O)[C@H]2O)[C@H]1O,Caco-2 monolayer,Caco-2 bidirectional transport,"10 µM, 3 h, 37 °C",,recovery apical to basolateral,64.3%
CN(C)c1cc2[nH]c(C3CCCCC3)nc2cc1NC(=O)c1ccc(F)cc1F,Vero,"cytotoxicity, Alamar Blue","3 days, 37 °C",,IC50,> 100 µg/mL
Cc1ccc(C)c(N2CCN(c3c(C)c(C)nc4ncnn34)CC2)c1,BRE-Luc reporter cells,luciferase counter screen,,,cytotoxicity onset concentration,> 17.9 µM
COc1ccc(N2C(=O)N(c3c(C)cccc3Cl)Cc3cnc(Nc4ccc(C5CCN(C)CC5)cc4OC)nc32)nc1,mouse BMDCs,,with: zymosan A,,CC50,> 10 µM
C=C[C@@H]1C[C@]1(NC(=O)[C@@H]1C[C@@H](Oc2ncc(OC)c3ccc(Cl)cc23)CN1C(=O)[C@@H](NC(=O)OC(C)(C)C)C(C)(C)C)C(=O)NS(=O)(=O)C1CC1,Caco-2 monolayer,,with: efflux inhibitor cocktail,B-A over A-B,efflux ratio,4.1
CCN(CC)c1cc2[nH]c(C3CCCCC3)nc2cc1NC(=O)OCCOCCOC,Vero,"cytotoxicity, Alamar Blue","3 days, 37 °C",,IC50,> 100 µg/mL
Cn1c(=O)c2c(ncn2Cc2nnc(SCC(=O)Nc3ccc(Cl)cc3Cl)n2-c2ccccc2)n(C)c1=O,bovine erythrocytes,,"1 mg/mL, 30 min, 37 °C",,haemolysis,15%
CCCC(C)OC(=O)Nc1cc2nc(C3CCCCC3)[nH]c2cc1N(CC)CC (stereo not shown),Vero,"cytotoxicity, Alamar Blue","3 days, 37 °C",,IC50,> 100 µg/mL
CCCCCCCCCCCC[N+](C)(C)C,horse PBMCs,resazurin viability,,,CC50,1030 µM
COC(=O)N[C@H](C(=O)N1CCC[C@H]1c1nc(-c2ccc(-c3ccc(-c4c[nH]c([C@@H]5CCCN5C(=O)[C@@H](NC(=O)OC)C(C)C)n4)cc3)cc2)c[nH]1)C(C)C,Caco-2 monolayer,,with: efflux inhibitor cocktail,,Papp A-B,15 ± 1.6 ×10⁻⁶ cm/s
CCCCCCCC/C=C\CCCCCCCCOC(=O)C1=C(C)NC(=S)NC1c1ccccc1O (stereo not shown),C2C12,"cell growth or viability, MTT","10 µM, 48 h",,viability,~70%
O=C(O)c1cc(O)c2c(c1)C(=O)c1cccc(O)c1C2=O,Caco-2 monolayer,,"in Rhizoma extract, extract 0.025 mg/mL",relative to: Papp(B-A) over Papp(A-B),efflux ratio,1.03
Cn1c(=O)c2c(ncn2Cc2nnc(SCC(=O)Nc3ccc(Cl)c(Cl)c3)n2-c2ccccc2)n(C)c1=O,bovine erythrocytes,,"1 mg/mL, 30 min, 37 °C",,haemolysis,5.5%
CCCN(Cc1ccccc1OC)C(=O)c1cccc(Br)c1F,HEK293,"cell viability, MTT",72 h,,IC50,24 ± 9.4 µM
CCCN(CCC)c1cc2[nH]c(C3CCCCC3)nc2cc1NC(=O)OCc1ccccc1,Vero,"cytotoxicity, Alamar Blue","3 days, 37 °C",,IC50,> 100 µg/mL
COCC#Cc1c(-c2ccc(C)cc2)oc2nc(=O)n([C@H]3C[C@H](OC(C)=O)[C@@H](COC(C)=O)O3)cc12,HEL human embryonic lung,cell morphology,,,minimum cytotoxic concentration,> 100 µM
Cc1ccc(C(=O)Nc2cc3nc(C4CCCCC4)[nH]c3cc2N2CCCC2)cc1,Vero,"cytotoxicity, Alamar Blue","3 days, 37 °C",,IC50,> 100 µg/mL
CCCCCCCC/C=C\CCCCCCCCOC(=O)C1=C(C)NC(=S)NC1c1cccc(Cl)c1 (stereo not shown),C2C12,"cell growth or viability, MTT","10 µM, 48 h",,viability,~70%
CC(=O)OC[C@H]1O[C@@H](n2cc3c(C#CC4(O)c5ccccc5-c5ccccc54)c(-c4ccc(C)cc4)oc3nc2=O)C[C@@H]1OC(C)=O,HEL human embryonic lung,cell morphology,,,minimum cytotoxic concentration,100 µM
CC(C)(C)c1cc(C(C)(C)C)c(NC(=O)c2c[nH]c3ccccc3c2=O)cc1O,Calu-3,,"3-10 µg/mL, 4 h, 37 °C, apical to basal transport",,accumulation in monolayer,46 to 83%
Cn1c(=O)c2c(ncn2Cc2nnc(SCC(=O)Nc3ccc(Cl)cc3)n2-c2ccccc2)n(C)c1=O,bovine erythrocytes,,"1 mg/mL, 30 min, 37 °C",,haemolysis,8.9%
O=C(Nc1cc2ccccc2cc1C(=O)O)c1ccccc1,HUVEC,MTT,up to 100 µM,,viability,> 50%
O=C(O[C@@H]1Cc2c(O)cc(O)cc2O[C@@H]1c1cc(O)c(O)c(O)c1)c1cc(O)c(O)c(O)c1,RPMI-8226,ATP luminescence,with: 40 nM bortezomib,,concentration reversing cytotoxicity,≥ 11 µM
CC(=O)OC[C@H]1O[C@@H](n2cc3c(C#CCCO)c(-c4ccc(C)cc4)oc3nc2=O)C[C@@H]1OC(C)=O,HEL human embryonic lung,cell morphology,,,minimum cytotoxic concentration,> 100 µM
COc1ccc(N2C(=O)N(c3c(C)cccc3Cl)Cc3cnc(Nc4ccc(N5CCN(C)CC5)cc4)nc32)nc1,mouse BMDCs,,with: zymosan A,,CC50,0.19 ± 0.06 µM
CC(=O)OCC#Cc1c(-c2ccc(C)cc2)oc2nc(=O)n([C@H]3C[C@H](OC(C)=O)[C@@H](COC(C)=O)O3)cc12,HEL human embryonic lung,cell morphology,,,minimum cytotoxic concentration,> 100 µM
O=C(Nc1cc2nc(C3CCCCC3)[nH]c2cc1N1CCCC1)c1ccc(Br)cc1,Vero,"cytotoxicity, Alamar Blue","3 days, 37 °C",,IC50,> 100 µg/mL
CC(=O)OC[C@H]1O[C@@H](n2cc3c(C#CCCN4C(=O)c5ccccc5C4=O)c(-c4ccc(C)cc4)oc3nc2=O)C[C@@H]1OC(C)=O,HEL human embryonic lung,cell morphology,,,minimum cytotoxic concentration,100 µM
Telavancin,J774 mouse macrophages,,"90 mg/L, 37 °C, 10% fetal calf serum",,uptake clearance,9.6 ± 0.6 µL/mg protein/h
